# Published values from different studies.
# Compare with care: the assays were run in different laboratories. Several values in a cell are separate wells, animals, samples, runs or records. Numbers after ± are the reported error.
# CASP7: Caspase-7 (CASP7, Homo sapiens, UniProt P55210)
# Chain of UniProt P55210 (whole entry, looked up): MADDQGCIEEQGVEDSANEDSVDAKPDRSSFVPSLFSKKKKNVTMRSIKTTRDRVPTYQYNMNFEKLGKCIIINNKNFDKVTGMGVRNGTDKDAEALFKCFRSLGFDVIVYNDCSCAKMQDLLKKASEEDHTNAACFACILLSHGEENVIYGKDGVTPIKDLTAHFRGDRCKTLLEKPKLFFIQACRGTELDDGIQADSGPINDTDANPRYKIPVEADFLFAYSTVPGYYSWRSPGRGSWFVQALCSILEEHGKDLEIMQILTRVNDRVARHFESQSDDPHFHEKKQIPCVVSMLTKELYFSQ
# T1: riboswitch RNA yjdF aptamer, L2 replaced by GAAA (Bacillus subtilis); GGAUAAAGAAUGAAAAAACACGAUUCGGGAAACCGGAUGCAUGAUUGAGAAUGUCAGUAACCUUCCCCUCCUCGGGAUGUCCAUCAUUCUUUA
# T2: riboswitch RNA; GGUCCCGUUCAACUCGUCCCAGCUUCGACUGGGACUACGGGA
# Chain of UniProt O94966 (whole entry, looked up): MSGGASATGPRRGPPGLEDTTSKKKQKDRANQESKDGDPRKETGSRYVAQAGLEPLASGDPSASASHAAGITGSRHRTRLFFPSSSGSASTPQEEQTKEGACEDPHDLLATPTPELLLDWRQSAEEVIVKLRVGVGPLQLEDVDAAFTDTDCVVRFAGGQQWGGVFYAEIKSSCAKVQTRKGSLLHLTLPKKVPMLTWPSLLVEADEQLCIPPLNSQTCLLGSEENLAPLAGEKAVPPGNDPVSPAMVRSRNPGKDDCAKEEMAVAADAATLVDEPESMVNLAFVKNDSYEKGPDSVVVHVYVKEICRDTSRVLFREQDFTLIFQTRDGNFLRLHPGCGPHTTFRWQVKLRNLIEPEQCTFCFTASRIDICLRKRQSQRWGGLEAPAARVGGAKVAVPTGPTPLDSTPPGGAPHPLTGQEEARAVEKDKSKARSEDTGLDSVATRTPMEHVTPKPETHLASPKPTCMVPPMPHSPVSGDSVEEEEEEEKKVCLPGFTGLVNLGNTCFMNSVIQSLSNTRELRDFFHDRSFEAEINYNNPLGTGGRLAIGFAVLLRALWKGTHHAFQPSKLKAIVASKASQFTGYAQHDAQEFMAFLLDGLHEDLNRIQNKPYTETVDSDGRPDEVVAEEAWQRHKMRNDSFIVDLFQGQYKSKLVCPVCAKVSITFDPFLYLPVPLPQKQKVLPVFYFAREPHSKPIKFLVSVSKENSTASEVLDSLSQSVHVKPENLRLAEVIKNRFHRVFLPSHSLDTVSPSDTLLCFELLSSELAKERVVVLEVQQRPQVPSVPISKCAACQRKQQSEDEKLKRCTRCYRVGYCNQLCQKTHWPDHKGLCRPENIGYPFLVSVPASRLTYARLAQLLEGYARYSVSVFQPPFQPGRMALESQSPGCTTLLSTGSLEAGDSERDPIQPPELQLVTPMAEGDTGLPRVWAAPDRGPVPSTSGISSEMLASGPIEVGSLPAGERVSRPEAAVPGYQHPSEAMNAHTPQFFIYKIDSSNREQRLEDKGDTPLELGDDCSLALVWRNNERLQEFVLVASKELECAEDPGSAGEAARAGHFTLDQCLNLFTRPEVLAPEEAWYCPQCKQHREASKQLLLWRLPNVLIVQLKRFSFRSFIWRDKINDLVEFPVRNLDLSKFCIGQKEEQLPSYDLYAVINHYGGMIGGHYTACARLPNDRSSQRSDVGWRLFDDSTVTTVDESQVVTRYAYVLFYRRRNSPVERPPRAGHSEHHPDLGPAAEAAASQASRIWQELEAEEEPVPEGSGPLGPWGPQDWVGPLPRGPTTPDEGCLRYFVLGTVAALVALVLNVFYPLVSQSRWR
# Chain of UniProt Q13148 (whole entry, looked up): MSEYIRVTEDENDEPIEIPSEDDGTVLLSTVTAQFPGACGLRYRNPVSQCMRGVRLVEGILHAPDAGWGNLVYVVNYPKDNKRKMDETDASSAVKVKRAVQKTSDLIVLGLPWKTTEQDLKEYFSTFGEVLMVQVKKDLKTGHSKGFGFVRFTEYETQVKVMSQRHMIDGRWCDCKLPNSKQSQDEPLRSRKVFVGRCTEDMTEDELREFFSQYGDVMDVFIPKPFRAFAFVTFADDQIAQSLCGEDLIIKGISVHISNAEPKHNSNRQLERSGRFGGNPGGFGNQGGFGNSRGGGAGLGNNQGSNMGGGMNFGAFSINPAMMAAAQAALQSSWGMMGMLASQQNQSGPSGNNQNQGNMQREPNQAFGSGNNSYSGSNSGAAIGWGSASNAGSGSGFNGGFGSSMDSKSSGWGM
# Chain of UniProt Q8IVH8 (whole entry, looked up): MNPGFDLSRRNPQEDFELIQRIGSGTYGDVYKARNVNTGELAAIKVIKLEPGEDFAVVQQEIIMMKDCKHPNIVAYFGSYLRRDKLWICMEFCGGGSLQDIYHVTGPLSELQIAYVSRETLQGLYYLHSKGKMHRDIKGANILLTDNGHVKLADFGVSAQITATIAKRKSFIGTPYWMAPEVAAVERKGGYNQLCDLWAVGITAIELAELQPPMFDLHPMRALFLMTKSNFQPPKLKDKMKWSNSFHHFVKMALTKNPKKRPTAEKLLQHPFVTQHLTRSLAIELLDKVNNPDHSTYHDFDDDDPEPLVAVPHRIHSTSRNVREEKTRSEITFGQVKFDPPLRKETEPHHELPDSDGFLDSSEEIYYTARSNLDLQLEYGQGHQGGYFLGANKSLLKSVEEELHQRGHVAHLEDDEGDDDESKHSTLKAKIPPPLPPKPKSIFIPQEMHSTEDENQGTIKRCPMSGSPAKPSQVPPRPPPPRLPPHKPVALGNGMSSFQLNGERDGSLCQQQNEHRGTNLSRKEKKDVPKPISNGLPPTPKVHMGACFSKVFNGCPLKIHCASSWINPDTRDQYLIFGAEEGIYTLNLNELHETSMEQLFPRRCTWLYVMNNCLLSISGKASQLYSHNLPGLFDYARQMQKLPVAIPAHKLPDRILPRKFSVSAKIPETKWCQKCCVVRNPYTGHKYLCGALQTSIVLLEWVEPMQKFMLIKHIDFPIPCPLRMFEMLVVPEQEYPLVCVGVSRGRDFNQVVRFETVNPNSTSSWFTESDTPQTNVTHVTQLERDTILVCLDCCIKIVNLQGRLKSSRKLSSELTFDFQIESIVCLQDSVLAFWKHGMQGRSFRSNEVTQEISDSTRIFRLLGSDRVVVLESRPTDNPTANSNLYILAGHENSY
# Chain of UniProt P19491 (whole entry, looked up): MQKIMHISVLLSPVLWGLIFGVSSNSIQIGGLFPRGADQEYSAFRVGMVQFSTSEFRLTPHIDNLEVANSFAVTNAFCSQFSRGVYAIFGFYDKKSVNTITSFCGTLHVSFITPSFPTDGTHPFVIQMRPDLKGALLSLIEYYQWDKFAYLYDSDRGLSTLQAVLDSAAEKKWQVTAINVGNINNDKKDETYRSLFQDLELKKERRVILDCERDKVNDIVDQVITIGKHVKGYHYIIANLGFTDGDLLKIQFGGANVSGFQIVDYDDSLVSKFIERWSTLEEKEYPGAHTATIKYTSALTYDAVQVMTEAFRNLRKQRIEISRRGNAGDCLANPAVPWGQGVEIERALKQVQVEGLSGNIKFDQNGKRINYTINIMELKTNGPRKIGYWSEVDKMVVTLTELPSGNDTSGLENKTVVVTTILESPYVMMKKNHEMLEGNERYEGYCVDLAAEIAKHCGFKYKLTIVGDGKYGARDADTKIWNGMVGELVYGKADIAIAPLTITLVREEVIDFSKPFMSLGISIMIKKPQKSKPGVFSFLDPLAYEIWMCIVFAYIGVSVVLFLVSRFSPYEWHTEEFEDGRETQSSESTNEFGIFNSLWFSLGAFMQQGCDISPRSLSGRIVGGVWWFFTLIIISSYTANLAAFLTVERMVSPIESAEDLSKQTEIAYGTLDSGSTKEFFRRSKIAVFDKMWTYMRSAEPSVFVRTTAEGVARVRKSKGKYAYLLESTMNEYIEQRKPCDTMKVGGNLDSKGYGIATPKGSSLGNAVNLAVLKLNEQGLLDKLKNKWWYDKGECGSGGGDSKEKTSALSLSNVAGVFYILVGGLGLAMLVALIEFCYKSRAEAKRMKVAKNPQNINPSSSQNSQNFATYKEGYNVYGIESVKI
# Chain of UniProt Q5TFE4 (whole entry, looked up): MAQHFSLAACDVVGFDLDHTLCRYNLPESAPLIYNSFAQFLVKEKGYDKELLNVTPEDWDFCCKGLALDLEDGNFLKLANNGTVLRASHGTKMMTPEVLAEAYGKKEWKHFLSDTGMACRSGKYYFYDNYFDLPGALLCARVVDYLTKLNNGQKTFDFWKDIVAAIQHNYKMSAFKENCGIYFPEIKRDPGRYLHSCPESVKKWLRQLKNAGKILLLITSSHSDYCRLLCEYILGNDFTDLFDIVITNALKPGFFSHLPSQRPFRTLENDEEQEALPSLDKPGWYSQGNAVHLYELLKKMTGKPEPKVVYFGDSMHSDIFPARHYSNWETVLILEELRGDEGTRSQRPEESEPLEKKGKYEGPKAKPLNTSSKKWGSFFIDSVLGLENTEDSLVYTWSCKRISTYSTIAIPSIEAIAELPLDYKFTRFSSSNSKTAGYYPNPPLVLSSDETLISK
Compound,target,assay,test system,setting,how to read,endpoint,value
COC(=O)Cc1cc2c(cc1C(=O)c1ccc(Cl)cc1Cl)OCO2,"Gria2 (Rattus norvegicus, UniProt P19491)","glutamate-evoked current, whole-cell patch clamp",HEK-293T,"concentration not given, weighted tau, 500 ms pulse, added: glutamate",,desensitization time constant,1.7 ± 0.1 ms
O=C1c2sc(-c3ccc(N4CCC(F)C4)nc3F)nc2CCN1c1cccnc1 (centres unmarked),"TAR DNA-binding protein 43, aggregated (TARDBP, Homo sapiens, UniProt Q13148)",radioligand binding,"human, FTLD-TDP type B extract",added: radioligand 6.91 nM,,specific binding,1.43 nM and 1.38 nM
COc1ccc2c(c[n+](C)c3c4cc5c(cc4ccc23)OCO5)c1OC,"T1, riboswitch RNA yjdF aptamer, L2 replaced by GAAA (Bacillus subtilis)",fluorescence titration,,read off a plot,,Kd,> 3 µM
C/C1=C\CC/C(C)=C/CC(C)(C)/C=C/C1,"SCN9A (Homo sapiens, UniProt Q15858)","inhibitor, whole-cell patch clamp",HEK293,"100 µM, 5 min, at -10 mV",,remaining current,95 ± 5%
Nc1nc2c(c(=O)[nH]1)N[C@@H](CNc1ccc(C(=O)N[C@@H](CCC(=O)O)C(=O)O)cc1)CN2,"T2, riboswitch RNA",ITC,,"25 °C, KCl 70 mM",,Kd,20 µM
CNC(=O)c1cnc(Nc2ccncc2)nc1-c1ccc(C)cc1,human kinase panel,"binding, KINOMEscan",,"10000 nM, %Ctrl below 10",,number of kinases hit,1
O=C(NO)c1ccc(Cn2c3c(c4cc(Br)ccc42)SC(c2ccccc2)C3)s1 (racemic),"Histone deacetylase 8 (Schistosoma mansoni, UniProt A5H660)",X-ray crystallography,,"ligand-Lys20 side chain, chain B, C3-CE",,interatomic distance,3.85 Å
CCCCCC=CC=C1C(=O)C=CC1CC=CCCCC(=O)O (centres unmarked),"5'-nucleotidase domain-containing protein 1 (NT5DC1, Homo sapiens, UniProt Q5TFE4)","competitive isoTOP-ABPP, measured: NT5DC1 cysteine peptide",Ramos soluble proteome,"100 µM, added: iodoacetamide probe","relative to: DMSO over compound-treated, higher = stronger cysteine blockade",isoTOP-ABPP competition ratio,2.3
CC[C@H](C)[C@H](NC(=O)[C@H](CCCCN)NC(=O)[C@H](C)NC(=O)[C@H](CCCNC(=N)N)NC(=O)[C@H](CCCCN)NC(=O)[C@H](CCC(N)=O)NC(=O)[C@H](CCC(N)=O)NC(=O)[C@H](CC(N)=O)NC(=O)[C@@H](NC(=O)[C@H](CC(C)C)NC(=O)[C@H](CC(N)=O)NC(=O)[C@@H]1CCCN1C(=O)[C@H](CC(=O)O)NC(=O)[C@H](CC(C)C)NC(=O)[C@H](C)NC(=O)[C@H](C)NC(=O)[C@H](CCC(=O)O)NC(=O)[C@H](Cc1c[nH]c2ccccc12)NC(=O)[C@H](Cc1ccc(O)cc1)NC(=O)[C@H](CCCNC(=N)N)NC(=O)[C@H](CC(N)=O)NC(=O)[C@H](CCCNC(=N)N)NC(=O)[C@H](CCSC)NC(=O)[C@H](CCC(=O)O)NC(=O)[C@H](CCCCN)NC(=O)[C@H](CO)NC(=O)[C@H](Cc1ccccc1)NC(C)=O)[C@@H](C)O)C(=O)N[C@@H](CCCNC(=N)N)C(=O)N[C@@H](CO)C(=O)N[C@H](C(=O)N[C@@H](Cc1ccc(O)cc1)C(=O)N[C@@H](CCC(=O)O)C(=O)N[C@@H](CCC(=O)O)C(=O)NCC(=O)N[C@@H](CCC(=O)O)C(N)=O)[C@@H](C)CC,"ERBB2 (Homo sapiens, UniProt P04626)","binding, SPR",,25 °C,,dissociation rate constant,0.0069 s⁻¹
N#CN1CC[C@H](C(=O)Nc2nc3c(s2)CN(C(=O)Cn2cc(CNC(=O)CCCC[C@@H]4SC[C@@H]5NC(=O)N[C@@H]54)nn2)CC3)C1,"USP19 (Homo sapiens, UniProt O94966)","probe binding, affinity probe, neutravidin pull-down LC-MS/MS","HEK293T, cell lysate","5 µM, 1 h, single replicate, unit not given",higher = more pulled down,iBAQ abundance,1.54e+06 and 970000 and 2.35e+06
CCCC[C@H](NC(=O)[C@H](CC(=O)O)NC(C)=O)C(=O)N[C@H](C(=O)N[C@@H](CC(=O)O)C(=O)COC(=O)c1c(C)cccc1C)[C@@H](C)OCc1ccccc1,CASP7,"enzyme activity, inhibitor",,,,kinact/KI,938000 M⁻¹ s⁻¹
Cc1cnc2nc1Nc1cccc(c1)COC/C=C/COCc1cc(ccc1OCCN1CCOCC1)N2,"MAP4K3 (Homo sapiens, UniProt Q8IVH8)",cell-free assay,,0.1 µM,,remaining signal,88%
CC(=O)N[C@@H](CC(C)C)C(=O)N[C@@H](Cc1ccccc1)C(=O)N[C@@H](CO)C(=O)N[C@@H](CC(=O)O)C(=O)COC(=O)c1c(C)cccc1C,CASP7,"enzyme activity, inhibitor",,,,kinact/KI,900 M⁻¹ s⁻¹
O=C(O)c1cc(-c2ccccc2)n(-c2ccccc2)n1,"Genome polyprotein, NS2B-NS3 protease (dengue virus type 2, UniProt P29990)","enzyme activity, fluorogenic AMC substrate",,50 µM,,inhibition,21%
